Experimental data from different studies.
A part holds a random share of what one study measured. Changes are numbered by the printed parent chain.

Series 1 — technique: protein-binding microarray; form: double-stranded DNA, one strand shown; matrix: in vitro; tested at: 2540 nM top; setting: 60-bp whole probe; with: salmon DNA 0.4 mg/ml; baseline: random background probes; reading: higher = stronger binding; shared flanks, not repeated: GCCTAGCAC … GTCTTGATTCGCTTGACGCTGCTG
Target: Interferon regulatory factor 3, full length, phosphomimetic (IRF3, Homo sapiens, UniProt Q14653, residues 1-427, S386D/S396D/S398D/S402D/T404D/S405D)
Construct (chain): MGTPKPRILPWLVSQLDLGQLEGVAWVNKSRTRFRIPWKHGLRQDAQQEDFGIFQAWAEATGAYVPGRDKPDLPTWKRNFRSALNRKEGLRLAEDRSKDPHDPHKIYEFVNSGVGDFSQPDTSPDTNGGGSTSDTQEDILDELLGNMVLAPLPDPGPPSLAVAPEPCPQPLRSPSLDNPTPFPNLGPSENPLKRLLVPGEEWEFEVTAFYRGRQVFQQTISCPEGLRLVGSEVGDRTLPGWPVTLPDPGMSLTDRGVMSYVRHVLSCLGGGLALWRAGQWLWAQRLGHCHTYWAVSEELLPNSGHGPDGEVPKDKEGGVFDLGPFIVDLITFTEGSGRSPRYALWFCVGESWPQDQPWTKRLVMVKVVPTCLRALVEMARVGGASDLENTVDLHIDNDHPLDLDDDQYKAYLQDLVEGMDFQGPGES
Sequence | fitted relative affinity
GACGGTTACCTTTCCCTGACGTGCTAG | 5.8 z-score
CACTATTTAAGGCCTATGCACGTGCTA | 0.494 z-score
TTAGGACTGGGGTTTAGGTTAGTGCTA | -0.959 z-score
AAACCATTTTTTTTCACTATGTGCTAG | 1.08 z-score
TTAGGTTTCGGGTTTCGGCTAGTGCTA | 5.32 z-score
GACGGACAGCTACTGCTGACGTGCTAG | -0.815 z-score
TCACTTCTATAGGCTAGAACTGTGCTA | 0.898 z-score
GACGGACTGGACACTTGGGACGTGCTA | -0.643 z-score
GGTGGTGATGGTGAGTAAGAGTGCTAG | -1.19 z-score
GACGTTATCGGGTTTCGGGACGTGCTA | 1.62 z-score
GACGATTTCAGGTATCGAGACGTGCTA | 1.35 z-score
CCTCCTTACTTTATGTAGGAGTGCTAG | 1.46 z-score
GACGGGCTGGGGTATCGGGACGTGCTA | -0.869 z-score
GAGGATCTCAGTATCGAGACGTGCTAG | 0.15 z-score
ATAGGTTCCCTTTTCCTTTAGTGCTAG | 7.38 z-score
GACGGACTGCTACTGCCGACGTGCTAG | -0.62 z-score
GCGCCTGTAGCCCCTCCAGGGTGCTAG | -0.528 z-score
TTAGGTATCCTTCTCCATTAGTGCTAG | 7.16 z-score
AAACTTACCTCACTCGTTAAGTGCTAG | 0.517 z-score

Series 2 — technique: DHFR PCA, deep sequencing; matrix: yeast; with: (+)-ABA 0.11 µM; baseline: wild-type fitted maximum; reading: higher = stronger binding
Target: ABI1, truncated, D143A, DHFR fusion (Arabidopsis thaliana)
Setting: methotrexate growth selection, single substitutions
Starting sequence: PYL1, truncated, DHFR fusion (Arabidopsis thaliana); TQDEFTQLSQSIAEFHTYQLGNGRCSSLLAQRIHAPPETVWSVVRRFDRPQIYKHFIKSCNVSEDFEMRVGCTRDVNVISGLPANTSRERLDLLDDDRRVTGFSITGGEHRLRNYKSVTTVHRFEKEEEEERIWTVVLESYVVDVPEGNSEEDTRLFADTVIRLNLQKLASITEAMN; partner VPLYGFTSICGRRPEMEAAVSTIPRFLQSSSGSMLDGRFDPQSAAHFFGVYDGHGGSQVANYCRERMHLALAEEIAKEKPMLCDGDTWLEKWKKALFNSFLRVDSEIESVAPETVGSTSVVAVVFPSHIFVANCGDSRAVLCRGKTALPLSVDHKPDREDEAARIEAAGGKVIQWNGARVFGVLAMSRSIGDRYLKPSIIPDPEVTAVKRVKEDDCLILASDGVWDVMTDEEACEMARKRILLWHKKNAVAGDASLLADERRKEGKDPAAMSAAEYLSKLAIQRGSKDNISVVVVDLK
Substitution | relative binding score
S59T | 20.4%
D97I | 11.2%
V121G | -5.24%
P146T | 13.6%
S59H | 6.78%
R132W | 1.82%
D153C | 0.261%
I172N | -1.26%

Series 3 — technique: protein binding microarray; form: double-stranded DNA, one strand shown; matrix: in vitro; tested at: not given; baseline: not given; reading: higher = stronger binding
Target: Histone acetyltransferase KAT6A, winged helix 1, GST fusion (KAT6A, Homo sapiens, UniProt Q92794, residues 1-85)
Setting: 8-mer, flanks averaged, mean of 2 arrays, mostly near background
Residues (chain): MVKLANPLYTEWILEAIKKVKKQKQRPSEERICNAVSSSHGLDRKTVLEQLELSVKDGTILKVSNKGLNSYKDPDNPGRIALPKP
Sequence | E-score
ATTTCTAG | -0.051
AAAATTAA | -0.042
AACATCCA | -0.186
ATGGCTAG | -0.1
CGACACCG | 0.334
ATTAACTG | -0.208
ATCTATTA | -0.141
CCAGATGC | -0.225
GCGCCGAA | 0.395
CCCACAGA | -0.247
CGGTGTTC | 0.232
CCGCGTTC | 0.353
ATAACCAT | -0.105

Series 4 — target: CCND1, cyclin fold, Cln2 fusion (human); technique: yeast growth competition, sequencing; matrix: yeast; setting: weak parent motif; baseline: not given; reading: higher = stronger binding
Starting sequence: EXO1 docking peptide (human); KPECGRVQRAIFQ
Substitution | normalised enrichment score
Q13A | 0.126
E3A | 0.0382
Q8A | 0.46
R9A | 0.00886
P2A | 0.169
I11A | -0.00257

Mixed results
Molecule | target | assay | system | conditions | scale | measurement | result
PhoQ, residues 284 288 289 292 302 303 AANNSF | PhoP, residues 12 14 15 18 19 VHTVL (Escherichia coli, UniProt P23836) | Sort-seq, item: YFP reporter | E. coli | PhoQ-PhoP variant library, with: 10 µM Mg2+ | baseline: high Mg2+ state, higher = stronger signaling | fold induction | 8.47

Some of these lines once more (series 2):
Substitution | relative binding score
S59T | 20.4%
D97I | 11.2%
V121G | -5.24%
P146T | 13.6%
S59H | 6.78%
R132W | 1.82%
